Results gathered from unrelated publications.
Each line is one published result; not all experiments were run side by side. Several values in a cell are separate wells, animals, samples, runs or records. ± gives the spread as reported.
NECTIN4: NECTIN4 32-349 (Homo sapiens, UniProt Q96NY8)
Sequence of UniProt Q96NY8 (whole entry, looked up): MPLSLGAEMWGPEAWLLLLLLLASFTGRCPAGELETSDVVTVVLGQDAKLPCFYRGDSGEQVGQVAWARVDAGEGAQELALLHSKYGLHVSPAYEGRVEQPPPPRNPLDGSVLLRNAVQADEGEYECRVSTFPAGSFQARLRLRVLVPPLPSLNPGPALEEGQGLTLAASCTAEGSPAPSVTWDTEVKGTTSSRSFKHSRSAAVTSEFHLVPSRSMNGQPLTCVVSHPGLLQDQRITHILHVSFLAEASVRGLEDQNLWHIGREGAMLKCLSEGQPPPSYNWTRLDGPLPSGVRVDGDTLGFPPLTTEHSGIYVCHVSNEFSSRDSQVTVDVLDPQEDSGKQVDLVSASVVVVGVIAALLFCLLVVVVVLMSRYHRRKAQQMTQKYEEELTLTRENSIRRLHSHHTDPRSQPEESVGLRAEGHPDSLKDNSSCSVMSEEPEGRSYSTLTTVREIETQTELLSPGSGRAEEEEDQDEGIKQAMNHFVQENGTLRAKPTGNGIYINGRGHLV
T1: TOA1/TOA2 1-286; 1-122 (Saccharomyces cerevisiae); chain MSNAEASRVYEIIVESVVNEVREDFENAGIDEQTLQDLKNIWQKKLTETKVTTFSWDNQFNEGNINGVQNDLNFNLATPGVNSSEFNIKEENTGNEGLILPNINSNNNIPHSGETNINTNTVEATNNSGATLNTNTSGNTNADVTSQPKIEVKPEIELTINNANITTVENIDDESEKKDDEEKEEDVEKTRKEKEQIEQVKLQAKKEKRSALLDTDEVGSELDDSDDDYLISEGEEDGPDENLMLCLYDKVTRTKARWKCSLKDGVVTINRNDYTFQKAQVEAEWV; chain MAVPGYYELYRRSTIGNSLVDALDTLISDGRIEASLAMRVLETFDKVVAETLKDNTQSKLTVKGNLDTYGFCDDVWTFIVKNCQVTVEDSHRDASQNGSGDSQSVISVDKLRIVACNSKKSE
B1: TIMP1 (Homo sapiens, UniProt P01033); chain CTCVPPHPQTAFCNSDLVIRAKFVGTPEVNQTTLYQRYEIKMTKMYKGFQALGDAADIRFVYTPAMESVCGYFHRSHNRSEEFLIAGKLQDGLLHITTCSFVAPWNSLSLAQRRGFTKTYTVGCEECTVFPCLSIPCKLQSGTHCLWTDQLLQGSEKGFQSRHLACLPREPGLCTWQSLRSQIA
B2: human SDHA; sequence looked up; chain ASAKVSDSISAQYPVVDHEFDAVVVGAGGAGLRAAFGLSEAGFNTACVTKLFPTRSHTVAAQGGINAALGNMEEDNWRWHFYDTVKGSDWLGDQDAIHYMTEQAPAAVVELENYGMPFSRTEDGKIYQRAFGGQSLKFGKGGQAHRCCCVADRTGHSLLHTLYGRSLRYDTSYFVEYFALDLLMENGECRGVIALCIEDGSIHRIRAKNTVVATGGYGRTYFSCTSAHTSTGDGTAMITRAGLPCQDLEFVQFHPTGIYGAGCLITEGCRGEGGILINSQGERFMERYAPVAKDLASRDVVSRSMTLEIREGRGCGPEKDHVYLQLHHLPPEQLATRLPGISETAMIFAGVDVTKEPIPVLPTVHYNMGGIPTNYKGQVLRHVNGQDQIVPGLYACGEAACASVHGANRLGANSLLDLVVFGRACALSIEESCRPGDKVPPIKPNAGEESVMNLDKLRFADGSIRTSELRLSMQKSMQNHAAVFRVGSVLQEGCGKISKLYGDLKHLKTFDRGMVWNTDLVETLELQNLMLCALQTIYGAEARKESRGAHAREDYKVRIDEYDYSKPIQGQQKKPFEEHWRKHTLSYVDVGTGKVTLEYRPVIDKTLNEADCATVPPAIRSY
B3: DLL4 27-400 (Homo sapiens, UniProt Q9NR61); chain SGVFQLQLQEFINERGVLASGRPCEPGCRTFFRVCLKHFQAVVSPGPCTFGTVSTPVLGTNSFAVRDDSSGGGRNPLQLPFNFTWPGTFSLIIEAWHAPGDDLRPEALPPDALISKIAIQGSLAVGQNWLLDEQTSTLTRLRYSYRVICSDNYYGDNCSRLCKKRNDHFGHYVCQPDGNLSCLPGWTGEYCQQPICLSGCHEQNGYCSKPAECLCRPGWQGRLCNECIPHNGCRHGTCSTPWQCTCDEGWGGLFCDQDLNYCTHHSPCKNGATCSNSGQRSYTCTCRPGYTGVDCELELSECDSNPCRNGGSCKDQEDGYHCLCPPGYYGLHCEHSTLSCADSPCFNGGSCRERNQGANYACECPPNFTGSNCE
B4: human ERp44; sequence looked up; chain EITSLDTENIDEILNNADVALVNFYADWCRFSQMLHPIFEEASDVIKEEFPNENQVVFARVDCDQHSDIAQRYRISKYPTLKLFRNGMMMKREYRGQRSVKALADYIRQQKSDPIQEIRDLAEITTLDRSKRNIIGYFEQKDSDNYRVFERVANILHDDCAFLSAFGDVSKPERYSGDNIIYKPPGHSAPDMVYLGAMTNFDVTYNWIQDKCVPLVREITFENGEELTEEGLPFLILFHMKEDTESLEIFQNEVARQLISEKGTINFLHADCDKFRHPLLHIQKTPADCPVIAIDSFRHMYVFGDFKDVLIPGKLKQFVFDLHSGKLHREFHHGPDPTDTAPGEQAQDVASSPPESSFQKLAPSEYRYTLLRDRDEL
B5: TIMP2 27-153 (Homo sapiens, UniProt P16035); sequence looked up; chain CSCSPVHPQQAFCNADVVIRAKAVSEKEVDSGNDIYGNPIKRIQYEIKQIKMFKGPEKDIEFIYTAPSSAVCGVSLDVGGKKEYLIAGKAEGDGKMHITLCDFIVPWDTLSTTQKKSLNHRYQMGCE
Sequence of UniProt Q64663 (whole entry, unmodified, looked up): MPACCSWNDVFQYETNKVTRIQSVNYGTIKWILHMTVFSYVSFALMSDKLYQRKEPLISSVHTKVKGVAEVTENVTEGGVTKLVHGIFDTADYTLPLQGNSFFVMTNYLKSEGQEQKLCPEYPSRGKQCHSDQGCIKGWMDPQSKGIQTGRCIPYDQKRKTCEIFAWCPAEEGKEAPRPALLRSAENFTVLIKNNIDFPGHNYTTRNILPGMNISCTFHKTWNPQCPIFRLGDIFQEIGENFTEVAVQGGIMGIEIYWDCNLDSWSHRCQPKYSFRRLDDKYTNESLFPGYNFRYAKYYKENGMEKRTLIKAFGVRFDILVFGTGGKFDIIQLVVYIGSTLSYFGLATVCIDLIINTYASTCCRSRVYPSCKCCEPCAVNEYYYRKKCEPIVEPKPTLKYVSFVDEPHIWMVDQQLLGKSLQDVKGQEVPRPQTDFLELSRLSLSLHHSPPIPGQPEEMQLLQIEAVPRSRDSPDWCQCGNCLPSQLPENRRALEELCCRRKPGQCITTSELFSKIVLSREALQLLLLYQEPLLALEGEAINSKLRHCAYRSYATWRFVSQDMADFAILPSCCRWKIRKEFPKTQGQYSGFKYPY
Sequence of UniProt P12318 (whole entry, looked up): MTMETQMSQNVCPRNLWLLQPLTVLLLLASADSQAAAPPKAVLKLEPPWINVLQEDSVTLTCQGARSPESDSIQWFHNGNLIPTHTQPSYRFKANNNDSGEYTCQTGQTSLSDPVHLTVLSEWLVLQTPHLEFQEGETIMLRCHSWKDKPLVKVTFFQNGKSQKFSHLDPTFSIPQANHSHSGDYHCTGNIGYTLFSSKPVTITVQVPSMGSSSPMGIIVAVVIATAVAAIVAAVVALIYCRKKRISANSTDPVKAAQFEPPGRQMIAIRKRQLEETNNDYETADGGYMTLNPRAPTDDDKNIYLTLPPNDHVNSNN
Sequence of UniProt P40026 (whole entry, looked up): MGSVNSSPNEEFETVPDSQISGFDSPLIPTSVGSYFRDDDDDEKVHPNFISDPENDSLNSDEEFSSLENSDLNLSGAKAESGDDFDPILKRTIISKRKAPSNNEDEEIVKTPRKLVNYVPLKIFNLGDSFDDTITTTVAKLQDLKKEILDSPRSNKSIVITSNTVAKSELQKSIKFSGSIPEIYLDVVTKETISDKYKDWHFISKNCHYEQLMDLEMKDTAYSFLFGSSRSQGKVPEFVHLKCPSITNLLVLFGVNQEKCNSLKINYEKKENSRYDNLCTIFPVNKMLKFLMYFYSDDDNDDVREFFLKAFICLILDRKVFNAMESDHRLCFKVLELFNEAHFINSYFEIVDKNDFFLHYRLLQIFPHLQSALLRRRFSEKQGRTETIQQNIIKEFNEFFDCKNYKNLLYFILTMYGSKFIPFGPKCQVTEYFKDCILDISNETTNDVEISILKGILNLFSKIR
Sequence of UniProt Q23985 (whole entry, looked up): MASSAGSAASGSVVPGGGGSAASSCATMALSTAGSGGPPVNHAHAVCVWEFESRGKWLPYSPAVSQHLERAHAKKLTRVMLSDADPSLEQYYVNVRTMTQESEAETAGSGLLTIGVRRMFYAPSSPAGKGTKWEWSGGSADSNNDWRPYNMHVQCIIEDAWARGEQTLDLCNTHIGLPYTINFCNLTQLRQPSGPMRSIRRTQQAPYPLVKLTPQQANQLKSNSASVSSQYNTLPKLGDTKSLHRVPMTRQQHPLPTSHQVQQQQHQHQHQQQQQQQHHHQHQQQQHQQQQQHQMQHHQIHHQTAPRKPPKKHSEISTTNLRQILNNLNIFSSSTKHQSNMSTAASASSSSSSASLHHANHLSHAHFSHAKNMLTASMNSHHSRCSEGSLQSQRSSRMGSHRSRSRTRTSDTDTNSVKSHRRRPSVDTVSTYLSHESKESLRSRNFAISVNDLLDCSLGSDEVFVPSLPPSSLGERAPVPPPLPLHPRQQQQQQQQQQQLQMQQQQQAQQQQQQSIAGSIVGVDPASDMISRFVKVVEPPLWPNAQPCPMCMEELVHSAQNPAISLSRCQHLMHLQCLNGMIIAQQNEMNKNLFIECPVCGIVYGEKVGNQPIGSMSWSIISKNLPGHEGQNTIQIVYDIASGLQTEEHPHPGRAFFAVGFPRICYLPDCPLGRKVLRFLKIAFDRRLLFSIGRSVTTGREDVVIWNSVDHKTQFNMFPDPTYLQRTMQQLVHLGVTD
Sequence of UniProt P32245 (whole entry, looked up): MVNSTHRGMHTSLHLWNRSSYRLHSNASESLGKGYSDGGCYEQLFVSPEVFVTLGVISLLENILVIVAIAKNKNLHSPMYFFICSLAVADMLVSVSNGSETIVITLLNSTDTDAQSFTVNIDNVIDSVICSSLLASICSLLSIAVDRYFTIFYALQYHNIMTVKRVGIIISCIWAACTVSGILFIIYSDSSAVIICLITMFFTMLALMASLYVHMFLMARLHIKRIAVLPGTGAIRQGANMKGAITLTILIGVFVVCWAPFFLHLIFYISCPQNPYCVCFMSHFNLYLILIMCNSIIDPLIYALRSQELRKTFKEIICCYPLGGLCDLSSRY
Sequence of UniProt P03956 (whole entry, looked up): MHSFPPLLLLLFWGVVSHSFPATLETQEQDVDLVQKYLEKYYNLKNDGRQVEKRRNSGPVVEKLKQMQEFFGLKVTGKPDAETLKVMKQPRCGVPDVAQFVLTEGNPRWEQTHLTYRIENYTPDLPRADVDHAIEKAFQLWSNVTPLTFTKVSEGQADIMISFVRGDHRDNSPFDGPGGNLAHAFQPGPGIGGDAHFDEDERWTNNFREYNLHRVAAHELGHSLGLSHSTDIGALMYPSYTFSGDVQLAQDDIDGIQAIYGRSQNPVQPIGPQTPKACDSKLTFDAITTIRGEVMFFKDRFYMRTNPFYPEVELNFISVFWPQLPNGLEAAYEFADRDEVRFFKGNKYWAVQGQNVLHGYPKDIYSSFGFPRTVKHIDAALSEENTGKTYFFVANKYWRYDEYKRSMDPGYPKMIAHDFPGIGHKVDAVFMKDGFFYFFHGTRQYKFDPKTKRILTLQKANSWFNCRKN
Sequence of UniProt O60573 (whole entry, unmodified, looked up): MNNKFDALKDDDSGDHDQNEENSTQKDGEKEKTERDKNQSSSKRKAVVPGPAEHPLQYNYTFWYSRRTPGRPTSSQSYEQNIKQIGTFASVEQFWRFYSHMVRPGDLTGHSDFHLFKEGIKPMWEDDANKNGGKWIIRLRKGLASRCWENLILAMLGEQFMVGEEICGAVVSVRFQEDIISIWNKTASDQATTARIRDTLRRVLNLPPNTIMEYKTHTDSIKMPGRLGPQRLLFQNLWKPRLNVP
Sequence of UniProt O75489 (whole entry, looked up): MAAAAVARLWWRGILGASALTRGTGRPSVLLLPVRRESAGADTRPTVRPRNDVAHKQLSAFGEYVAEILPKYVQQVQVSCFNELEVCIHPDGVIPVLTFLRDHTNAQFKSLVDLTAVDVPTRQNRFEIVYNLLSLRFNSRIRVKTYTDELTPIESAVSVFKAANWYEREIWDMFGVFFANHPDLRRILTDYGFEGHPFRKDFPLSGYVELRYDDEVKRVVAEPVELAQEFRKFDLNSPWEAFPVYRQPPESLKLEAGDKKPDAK
Sequence of UniProt P38632 (whole entry, looked up): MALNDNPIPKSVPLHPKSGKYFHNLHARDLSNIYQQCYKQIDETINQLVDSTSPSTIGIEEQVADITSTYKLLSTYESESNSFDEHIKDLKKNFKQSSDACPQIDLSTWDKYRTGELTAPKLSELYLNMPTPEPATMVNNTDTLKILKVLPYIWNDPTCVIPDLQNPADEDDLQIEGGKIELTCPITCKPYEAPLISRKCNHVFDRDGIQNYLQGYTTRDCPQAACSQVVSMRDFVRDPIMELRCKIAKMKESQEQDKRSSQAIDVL
Sequence of UniProt P08253 (whole entry, looked up): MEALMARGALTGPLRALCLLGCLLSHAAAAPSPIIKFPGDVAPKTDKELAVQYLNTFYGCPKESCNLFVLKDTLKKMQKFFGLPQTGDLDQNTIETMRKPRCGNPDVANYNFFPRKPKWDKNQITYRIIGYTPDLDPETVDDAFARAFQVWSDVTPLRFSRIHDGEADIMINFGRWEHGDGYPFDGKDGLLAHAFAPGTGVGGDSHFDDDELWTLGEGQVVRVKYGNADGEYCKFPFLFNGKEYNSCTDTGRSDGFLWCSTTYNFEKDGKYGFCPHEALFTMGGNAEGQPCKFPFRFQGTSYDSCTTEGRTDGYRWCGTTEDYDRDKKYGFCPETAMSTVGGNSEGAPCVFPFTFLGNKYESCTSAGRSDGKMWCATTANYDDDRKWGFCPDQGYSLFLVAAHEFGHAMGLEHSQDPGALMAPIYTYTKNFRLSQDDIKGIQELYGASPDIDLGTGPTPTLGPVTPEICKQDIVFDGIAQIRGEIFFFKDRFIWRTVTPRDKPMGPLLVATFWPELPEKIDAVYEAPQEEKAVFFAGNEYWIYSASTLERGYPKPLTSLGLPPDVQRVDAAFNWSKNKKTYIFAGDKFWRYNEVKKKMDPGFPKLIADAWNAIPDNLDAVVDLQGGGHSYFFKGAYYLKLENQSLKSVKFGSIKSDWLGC

Molecule | tested on | assay | test system | setting | how to read | quantity | result
B1 (TIMP1) | MMP2 110-452 (Homo sapiens, UniProt P08253) | MMP-2 inhibition, inhibitor, Morrison tight-binding equation |  |  |  | Ki | 5.2 nM
DLDSDDEY (TELO2 488-494 (Homo sapiens); pS491) | PIH1D1 51-180 K166A (Homo sapiens, UniProt Q9NWS0) | ITC | peptide |  |  | molecule per partner | 0.6
ecfT (Listeria monocytogenes) | EcfA' (Listeria monocytogenes) | SEC-MALS |  |  |  | subunits per oligomer | 1
PES1 (Homo sapiens, UniProt O00541) | BOP1 (Homo sapiens, UniProt Q14137) | cross-linking MS | cells | added: iqPIR |  | cross-linked residues | K533 to K711
bradykinin (UniProt P01042) | BDKRB2 (Homo sapiens, UniProt P30411) | G12 BRET response | BDKRB2 cells |  |  | EC50 | 3.13 nM
GAATTCCTATATATTAATGTGGAGCTCCGTTCGTCTCAAGTCAATCGGTCC (dsDNA; 5'-amino-C6 primer) | T1, TOA1/TOA2 1-286; 1-122 (Saccharomyces cerevisiae) | array | double-stranded DNA, one strand shown | TFIIA alone |  | Kd | 66.9 ± 27.3 nM
KIF5B fragment (Mus musculus) | TUBA1A/TUBB microtubules, 20% rhodamine-labelled tubulin (Sus scrofa) | TIRF microscopy |  | single-molecule |  | landing rate | 0.23 µm⁻¹ min⁻¹
AEKKDEGPYRMEHFRWGSPPKD (beta-MSH (Homo sapiens)) | MC4R (Homo sapiens, UniProt P32245) | luciferase reporter, β-arrestin recruitment | peptide, HTLA |  |  | EC50 | 8.23 nM
B2 (human SDHA) | PP6C (human) | co-immunoprecipitation, IP-MS | CYB5R4 knockout cells | concentration not given | baseline: CYB5R4 knockout over parental | log2 fold change | -1.49
H3C1 N-terminal peptide, K14 crotonyl | KAT6A 194-323 (Homo sapiens, UniProt Q92794) | ITC |  | pH 7.5 |  | ΔH | -4.5 kcal/mol
FGB (Homo sapiens, UniProt P02675) | PARVA (Homo sapiens, UniProt Q9NVD7) | cross-linking MS |  | added: DSSO |  | cross-linked residues | K77 to K131
DYNLRB1/DYNLL1/DYNLT1/DYNC1LI2/DYNC1I2/DYNC1H1 dynein-1 complex (Homo sapiens) | HOOK3/NINL chimera Hook3 CC, NINL LIC-BD, HaloTag | pull-down |  |  |  | Ka | > 1.6e+06 M⁻¹
human ME2 Q51H |  | enzyme activity, activator, NADH absorbance | recombinant enzyme | range over 0 to 5 mM, pH 7.4 | baseline: wild type | activation fold | 0.8
SERPINA1 (Homo sapiens, UniProt P01009) | Thrombin mature, plasma-derived (Homo sapiens) | inhibition kinetics, amidolytic activity |  |  |  | second-order inhibition rate constant | 40 M⁻¹ s⁻¹
EGLN1 fragment | HIF1A CODD peptide 556-574, C-terminal amide (Homo sapiens) | BLI |  |  |  | kon | 2000 M⁻¹ s⁻¹
ACPFGCMKNWSWPAWCTNK (Bicycle 70 bicyclic peptide; C-terminal amide/TATA scaffold, three cysteines cyclised) | NECTIN4 | fluorescence polarisation | peptide |  |  | Ki | 39.6 nM
CALCA CGRP 8-? (Homo sapiens) | CALCRL/RAMP1 whole, on cells, myc, HA tags (human) | cAMP accumulation, antagonist | Cos7 | added: CGRP |  | pKB | 1.9 nM
FGG (Homo sapiens, UniProt P02679) | HTR2A (Homo sapiens, UniProt P28223) | cross-linking MS |  | added: DSSO |  | cross-linked residues | K177 to K191
DNM1L K38A (Homo sapiens) | DNM1L 1-699 (Homo sapiens, UniProt O00429-4) | GTPase activity |  | 1.3 µM total, varying Drp1-WT to Drp1-K38A ratios, added: actin filaments 1 µM | higher = more activity | relative GTPase activity | > 3 fold
Notch ankyrin domain D81A/R107A (Drosophila) | dx (Drosophila melanogaster, UniProt Q23985) | AUC |  |  |  | Kd | 7880 nM
Mcm2-7, DyLight 650 on Mcm6 N-terminus (Saccharomyces cerevisiae) | ORC unphosphorylated, DyLight 550 on Orc6 (Saccharomyces cerevisiae) | smFRET |  |  |  | median interaction duration | 26.4 s
ALB (Homo sapiens, UniProt P02768) | MAP1A (Homo sapiens, UniProt P78559) | cross-linking MS |  | added: DSSO |  | cross-linked residues | K305 to K1490
HSDGTFTSELSRLREGARLQRLLQGLV (SCT mature (Homo sapiens, UniProt P09683)) | SCTR (Homo sapiens, UniProt P47872) | cAMP, agonist, HTRF | peptide, CHO-SecR |  |  | cAMP response | 11.1 pEC50
RGS9/GNB5 (Bos taurus) | GNAT1 (Bos taurus, UniProt P04695) | co-IP |  |  | baseline: total | Gαt associated | 10%

Molecule | tested on | assay | test system | setting | how to read | quantity | result
BzATP | P2X purinoceptor 7 (P2rx7, Rattus norvegicus, UniProt Q64663, Q143A) | ion current, agonist, two-electrode voltage clamp | Xenopus oocytes | 1.2 µM |  | normalized current | 0.075 and 0.04 and 0.024
B3 (DLL4 27-400) | NOTCH1 full length, on cells (UniProt P46531) | Notch1 reporter activation EC50 | CHO-K1 | 24 h |  | adsorbed ligand amount | 2.3 ng mm^-2
ACPFGCMKAWSWPIWCTNK (Bicycle 65 bicyclic peptide; C-terminal amide/TATA scaffold, three cysteines cyclised) | NECTIN4 | fluorescence polarisation | peptide |  |  | Ki | 45.2 nM
human ME2 D102S |  | enzyme activity, activator, NADH absorbance | recombinant enzyme | range over 0 to 5 mM, pH 7.4 | baseline: wild type | activation fold | 0.9
B4 (human ERp44) | PP6C (human) | co-immunoprecipitation, IP-MS | CYB5R4 knockout cells | concentration not given | baseline: CYB5R4 knockout over parental | log2 fold change | -2.31
HSPA12B (Homo sapiens, UniProt Q96MM6) | SLC40A1 (Homo sapiens, UniProt Q9NP59) | cross-linking MS |  | added: DSSO |  | cross-linked residues | K560 to K366
Neuropeptide Y |  | RP-HPLC | HALO C18 column | 25 µM, acetic acid/acetonitrile, 25 min gradient |  | retention time | 9.62 min
EGF mature | EGFR Fc fusion fragment (Homo sapiens) | ITC |  |  |  | ΔH | 23 ± 0.089 kcal/mol
BMI1 (Homo sapiens, UniProt P35226) | RNF2 (Homo sapiens, UniProt Q99496) | cross-linking MS |  | hits only |  | interaction screen | cross-linked
MMS21 (Saccharomyces cerevisiae, UniProt P38632) | KRE29 (Saccharomyces cerevisiae, UniProt P40026) | cross-linking MS |  | hits only |  | interaction screen | cross-linked
KYKLADYRYGREEMLALYVK (GIGYF1(33-52) peptide; sequence looked up) | EIF4E2 (Homo sapiens, UniProt O60573) | ITC | peptide | pH 7.0, 20 °C, GB1-stabilized peptide titration |  | ΔH | -23 ± 3 kcal/mol
11-deoxycorticosterone | CYP11B2 (human) | substrate binding, stopped-flow global kinetic fitting | purified enzyme | model, linear, 4 state, CS-IF, added: 40-fold excess adrenodoxin |  | Kd | 3460 nM
NDUFS3 (Homo sapiens, UniProt O75489) | NDUFA7 (Homo sapiens, UniProt O95182) | cross-linking MS | cells | added: iqPIR |  | cross-linked residues | K56 to K102
FGA (Homo sapiens, UniProt P02671) | DIPK2B (Homo sapiens, UniProt Q9H7Y0) | cross-linking MS |  | added: DSSO |  | cross-linked residues | K437 to K119
B5 (TIMP2 27-153) | MMP1 100-269 (Homo sapiens, UniProt P03956) | enzyme activity, inhibitor, fluorogenic peptide cleavage assay |  |  |  | Ki | 0.42 ± 0.03 nM
MBL-A mature, hydroxylysine, hydroxyproline in collagen (Rattus norvegicus, UniProt P19999) | C1S fragment (Homo sapiens) | SPR |  | added: CaCl2 140 mM |  | koff | 0.00217 s⁻¹
SMC5 (Saccharomyces cerevisiae, UniProt Q08204) | SMC6 (Saccharomyces cerevisiae, UniProt Q12749) | cross-linking MS |  | hits only |  | interaction screen | cross-linked
ACTA1 (Gallus gallus, UniProt P68139) | MYH1 (Oryctolagus cuniculus, UniProt A0A5F9CQ93) | laser three-bead trap |  | Bell-bond fit, added Pi 0 mM, added: ATP 100 µM |  | detachment rate without load | 124 s⁻¹
trastuzumab-MMAE ADC IgG1 | FCGR2A (Homo sapiens, UniProt P12318) | BLI |  | ADC | baseline: unconjugated Trastuzumab, higher = weaker binding | KD fold increase | 1.4 fold
colistin | Pseudomonas aeruginosa | broth microdilution | clinical isolate RKI-No_696/15 |  |  | MIC | 2 µg/mL
JAZ2 fragment (Arabidopsis thaliana) | NINJA 342-406 (Arabidopsis thaliana, UniProt Q9SV55) | competitor, AlphaScreen or HTRF |  |  |  | IC50 | 220 nM
YIRLYDYHNC (peptide; linear, N-acetyl, C-terminal amide) | MAGEA4 (UniProt P43358) | competition with ligand, TR-FRET | peptide |  |  | IC50 | < 10000 nM
aducanumab (Homo sapiens) | amyloid beta 3-end, N-terminal pyroglutamate at 3 | SiMoA |  |  |  | limit of detection | 56 pM
